Published values from different studies.
Protocols differ between the studies behind these lines.
Sequence of UniProt P52824 (whole entry, looked up): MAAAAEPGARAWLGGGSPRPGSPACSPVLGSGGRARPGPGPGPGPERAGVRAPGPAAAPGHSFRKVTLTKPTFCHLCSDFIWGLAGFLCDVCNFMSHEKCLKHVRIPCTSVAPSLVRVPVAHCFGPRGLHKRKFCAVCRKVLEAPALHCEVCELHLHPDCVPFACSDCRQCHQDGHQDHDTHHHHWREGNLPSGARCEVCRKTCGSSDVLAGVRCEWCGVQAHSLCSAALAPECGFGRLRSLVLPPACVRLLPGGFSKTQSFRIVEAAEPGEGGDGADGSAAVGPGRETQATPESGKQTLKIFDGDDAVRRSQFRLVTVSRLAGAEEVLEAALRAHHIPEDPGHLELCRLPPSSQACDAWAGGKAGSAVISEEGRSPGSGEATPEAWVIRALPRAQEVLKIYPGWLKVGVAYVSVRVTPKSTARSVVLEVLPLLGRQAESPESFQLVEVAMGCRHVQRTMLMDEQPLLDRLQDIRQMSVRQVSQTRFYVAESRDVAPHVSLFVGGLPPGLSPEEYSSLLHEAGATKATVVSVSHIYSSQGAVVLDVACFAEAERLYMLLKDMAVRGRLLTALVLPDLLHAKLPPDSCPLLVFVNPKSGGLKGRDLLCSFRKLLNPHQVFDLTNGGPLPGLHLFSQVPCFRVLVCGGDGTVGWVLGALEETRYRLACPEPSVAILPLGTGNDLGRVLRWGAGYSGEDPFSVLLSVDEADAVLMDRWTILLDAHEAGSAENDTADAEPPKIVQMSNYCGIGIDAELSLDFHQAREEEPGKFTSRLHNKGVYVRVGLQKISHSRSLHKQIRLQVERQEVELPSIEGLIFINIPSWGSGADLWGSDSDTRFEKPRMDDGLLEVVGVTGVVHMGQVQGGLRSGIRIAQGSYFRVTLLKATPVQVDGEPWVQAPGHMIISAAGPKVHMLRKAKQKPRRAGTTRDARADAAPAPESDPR
Sequence of UniProt O00329 (whole entry, looked up): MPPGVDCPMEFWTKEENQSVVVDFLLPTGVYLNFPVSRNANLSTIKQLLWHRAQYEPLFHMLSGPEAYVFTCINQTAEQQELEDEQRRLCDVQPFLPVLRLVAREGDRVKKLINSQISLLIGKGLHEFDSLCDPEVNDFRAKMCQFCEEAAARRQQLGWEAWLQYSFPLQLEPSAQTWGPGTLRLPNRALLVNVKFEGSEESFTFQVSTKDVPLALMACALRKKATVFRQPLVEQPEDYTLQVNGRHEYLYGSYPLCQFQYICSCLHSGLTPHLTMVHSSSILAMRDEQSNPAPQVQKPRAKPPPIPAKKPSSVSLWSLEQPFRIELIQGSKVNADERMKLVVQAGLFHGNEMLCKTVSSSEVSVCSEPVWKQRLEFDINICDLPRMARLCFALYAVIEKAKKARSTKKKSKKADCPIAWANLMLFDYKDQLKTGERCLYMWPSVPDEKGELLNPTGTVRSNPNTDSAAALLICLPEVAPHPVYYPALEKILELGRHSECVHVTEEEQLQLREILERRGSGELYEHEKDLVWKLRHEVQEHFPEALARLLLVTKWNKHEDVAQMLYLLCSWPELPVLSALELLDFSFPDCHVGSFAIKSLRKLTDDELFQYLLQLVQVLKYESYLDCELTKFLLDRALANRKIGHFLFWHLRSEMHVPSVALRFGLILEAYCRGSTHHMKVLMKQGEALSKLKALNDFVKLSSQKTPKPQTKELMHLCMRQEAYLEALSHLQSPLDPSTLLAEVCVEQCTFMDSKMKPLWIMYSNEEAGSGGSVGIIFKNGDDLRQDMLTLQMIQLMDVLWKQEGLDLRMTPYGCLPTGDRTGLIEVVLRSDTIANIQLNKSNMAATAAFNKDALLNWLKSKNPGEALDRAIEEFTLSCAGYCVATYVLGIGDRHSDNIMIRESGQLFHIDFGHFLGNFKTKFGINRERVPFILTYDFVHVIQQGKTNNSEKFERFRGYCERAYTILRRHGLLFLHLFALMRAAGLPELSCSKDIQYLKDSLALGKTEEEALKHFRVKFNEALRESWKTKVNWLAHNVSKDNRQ
Sequence of UniProt Q8NE63 (whole entry, looked up): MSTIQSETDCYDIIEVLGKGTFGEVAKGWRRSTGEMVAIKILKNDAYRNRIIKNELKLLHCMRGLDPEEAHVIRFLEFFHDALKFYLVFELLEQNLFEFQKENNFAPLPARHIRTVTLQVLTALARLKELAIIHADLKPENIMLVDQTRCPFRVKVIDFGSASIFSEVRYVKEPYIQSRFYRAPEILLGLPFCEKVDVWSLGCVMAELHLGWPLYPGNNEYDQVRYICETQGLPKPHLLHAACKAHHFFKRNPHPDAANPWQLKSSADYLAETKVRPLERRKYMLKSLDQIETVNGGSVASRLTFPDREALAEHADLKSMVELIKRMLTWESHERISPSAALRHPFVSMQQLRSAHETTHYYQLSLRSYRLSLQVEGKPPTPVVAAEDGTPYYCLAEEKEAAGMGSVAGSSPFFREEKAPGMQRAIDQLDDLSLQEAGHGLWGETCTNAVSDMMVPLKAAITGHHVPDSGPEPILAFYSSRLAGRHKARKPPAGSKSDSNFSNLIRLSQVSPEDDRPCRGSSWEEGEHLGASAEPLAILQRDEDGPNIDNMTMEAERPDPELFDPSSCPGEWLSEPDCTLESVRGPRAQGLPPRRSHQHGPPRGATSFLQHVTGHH
Sequence of UniProt Q9ULC6 (whole entry, looked up): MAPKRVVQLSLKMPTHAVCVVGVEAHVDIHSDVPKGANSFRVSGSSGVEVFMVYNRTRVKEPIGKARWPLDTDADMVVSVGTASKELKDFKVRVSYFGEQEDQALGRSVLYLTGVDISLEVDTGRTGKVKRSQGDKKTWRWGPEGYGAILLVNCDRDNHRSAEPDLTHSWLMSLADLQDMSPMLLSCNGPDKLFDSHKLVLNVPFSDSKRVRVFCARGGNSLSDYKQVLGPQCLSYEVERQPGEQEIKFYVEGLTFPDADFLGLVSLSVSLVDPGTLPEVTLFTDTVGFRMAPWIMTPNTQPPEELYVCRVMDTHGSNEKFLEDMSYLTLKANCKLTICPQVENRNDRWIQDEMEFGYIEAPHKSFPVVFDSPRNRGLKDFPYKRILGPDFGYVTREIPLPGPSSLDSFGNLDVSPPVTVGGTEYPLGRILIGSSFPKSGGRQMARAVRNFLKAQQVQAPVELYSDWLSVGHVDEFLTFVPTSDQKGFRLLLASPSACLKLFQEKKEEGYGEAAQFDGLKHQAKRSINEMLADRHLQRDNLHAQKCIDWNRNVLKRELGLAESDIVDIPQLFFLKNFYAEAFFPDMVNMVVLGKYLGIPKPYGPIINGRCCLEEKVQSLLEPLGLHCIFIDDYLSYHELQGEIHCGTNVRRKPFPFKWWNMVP
Sequence of UniProt O43148 (whole entry, looked up): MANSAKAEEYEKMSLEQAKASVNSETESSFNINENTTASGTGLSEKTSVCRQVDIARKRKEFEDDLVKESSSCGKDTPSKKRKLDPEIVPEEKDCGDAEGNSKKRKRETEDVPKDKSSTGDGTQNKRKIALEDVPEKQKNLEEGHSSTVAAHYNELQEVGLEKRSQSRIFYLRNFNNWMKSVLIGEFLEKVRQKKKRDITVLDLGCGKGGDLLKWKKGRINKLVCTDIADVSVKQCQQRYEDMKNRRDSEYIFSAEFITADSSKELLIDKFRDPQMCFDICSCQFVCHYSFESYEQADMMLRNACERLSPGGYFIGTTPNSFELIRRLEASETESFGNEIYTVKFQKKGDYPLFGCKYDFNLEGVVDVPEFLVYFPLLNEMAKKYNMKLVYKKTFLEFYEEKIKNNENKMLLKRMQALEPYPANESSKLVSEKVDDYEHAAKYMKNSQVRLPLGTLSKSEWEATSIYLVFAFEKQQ
Sequence of UniProt Q96L34 (whole entry, looked up): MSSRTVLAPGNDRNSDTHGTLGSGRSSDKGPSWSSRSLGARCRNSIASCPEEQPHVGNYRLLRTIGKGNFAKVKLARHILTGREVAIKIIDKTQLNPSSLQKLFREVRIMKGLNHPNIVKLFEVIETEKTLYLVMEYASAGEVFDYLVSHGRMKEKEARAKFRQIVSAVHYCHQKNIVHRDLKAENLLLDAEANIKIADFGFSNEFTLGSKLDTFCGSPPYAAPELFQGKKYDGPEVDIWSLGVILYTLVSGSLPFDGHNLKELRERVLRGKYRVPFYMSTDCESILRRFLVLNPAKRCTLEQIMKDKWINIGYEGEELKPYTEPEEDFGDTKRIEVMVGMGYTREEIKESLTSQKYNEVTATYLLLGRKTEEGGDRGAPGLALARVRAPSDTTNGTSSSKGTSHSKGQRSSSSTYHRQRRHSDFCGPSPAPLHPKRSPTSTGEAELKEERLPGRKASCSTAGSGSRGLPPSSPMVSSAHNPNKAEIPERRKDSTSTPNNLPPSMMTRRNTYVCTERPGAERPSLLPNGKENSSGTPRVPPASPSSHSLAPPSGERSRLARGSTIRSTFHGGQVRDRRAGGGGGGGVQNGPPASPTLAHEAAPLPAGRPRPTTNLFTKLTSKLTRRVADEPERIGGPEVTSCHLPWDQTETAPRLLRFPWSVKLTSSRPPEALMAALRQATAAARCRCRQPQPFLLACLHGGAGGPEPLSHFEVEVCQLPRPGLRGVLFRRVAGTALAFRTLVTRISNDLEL

For O=C(NC1CCN(c2ncnc3[nH]cnc23)CC1)c1cccc(NS(=O)(=O)c2ccc(C(F)(F)F)cc2)c1, the inhibition was 7.15% (RNMT (Homo sapiens, UniProt O43148); enzyme activity, inhibitor; 3.125 µM).
The inhibition of CC(C)[C@H]1NC(=O)C[C@H]2/C=C/CCSSC[C@@H](NC1=O)C(=O)N[C@H](Cc1cccc3ccccc13)C(=O)NCC(=O)O2 is reported as 3.1% (HIPK4 (Homo sapiens, UniProt Q8NE63); enzyme activity, inhibitor; 10 µM).
For CC(=O)NC[C@@H]1[C@@H](O)C[C@H]2[C@H](O)C[C@@H](CO)N12, the inhibition was 18.8% (human placental β-N-acetylglucosaminidase; 0.0107 µM, run 1, together with: p-nitrophenyl GlcNAc).
The inhibition of C[C@H](NCc1ccc(-c2ccc(C(F)(F)F)cc2)cc1)C(N)=O is reported as 9% (GABAA receptor central benzodiazepine site, rat; binding, radioligand binding; biochemical; 1 µM, together with: [3H]flunitrazepam 1.0 nM).
O=C(CN1CN(c2ccccc2)C2(CCN(C(=O)c3cnc4[nH]ncc4c3)CC2)C1=O)NCC(F)(F)F gave an inhibition of less than 50% (MARK4 (Homo sapiens, UniProt Q96L34); inhibitor; concentration not given).
The inhibition of N[C@H](C(=O)N1CCCC1)C1CCN(c2nccc3c(-c4ncc(Cl)cc4Cl)cccc23)CC1 is reported as 95.6% (PADI1 (Homo sapiens, UniProt Q9ULC6); enzyme activity, inhibitor; 3.84 µM).
The inhibition of COc1ccc(F)cc1S(=O)(=O)Nc1cnc2c(c1)C(=O)NCCO2 is reported as 2% (GABAA receptor; radioligand binding; central; 10 µM, together with: flunitrazepam).
The inhibition of CS(C)(=O)=Nc1ccc(-c2ccc(-c3nc4cc(O[C@@H]5CO[C@H]6[C@@H]5OC[C@H]6O)[nH]c4cc3F)cc2)cc1 is reported as 3% (Phosphatidylinositol 4,5-bisphosphate 3-kinase catalytic subunit delta isoform, with p85 alpha (PIK3CD, Homo sapiens, UniProt O00329); kinase activity; 10 µM).
CN(C)[C@H]1C[C@@]23CC[C@@]4(O2)C(=CC[C@]2(C)[C@@H](c5ccc6ccncc6c5)CC[C@H]24)C=C3[C@@H](O)[C@@H]1O gave an inhibition of 6.1% (Diacylglycerol kinase theta (DGKQ, Homo sapiens, UniProt P52824); ATP probe labelling, inhibitor, KiNativ profiling; 1 µM).

Some of these lines once more:
For O=C(NC1CCN(c2ncnc3[nH]cnc23)CC1)c1cccc(NS(=O)(=O)c2ccc(C(F)(F)F)cc2)c1, the inhibition was 7.15% (RNMT (Homo sapiens, UniProt O43148); enzyme activity, inhibitor; 3.125 µM).
